Results from different studies.
Each line is one published result; not all experiments were run side by side.
ATR: Serine/threonine-protein kinase ATR (ATR, Homo sapiens, UniProt Q13535)
UniProt Q13535, sequence (whole entry, looked up): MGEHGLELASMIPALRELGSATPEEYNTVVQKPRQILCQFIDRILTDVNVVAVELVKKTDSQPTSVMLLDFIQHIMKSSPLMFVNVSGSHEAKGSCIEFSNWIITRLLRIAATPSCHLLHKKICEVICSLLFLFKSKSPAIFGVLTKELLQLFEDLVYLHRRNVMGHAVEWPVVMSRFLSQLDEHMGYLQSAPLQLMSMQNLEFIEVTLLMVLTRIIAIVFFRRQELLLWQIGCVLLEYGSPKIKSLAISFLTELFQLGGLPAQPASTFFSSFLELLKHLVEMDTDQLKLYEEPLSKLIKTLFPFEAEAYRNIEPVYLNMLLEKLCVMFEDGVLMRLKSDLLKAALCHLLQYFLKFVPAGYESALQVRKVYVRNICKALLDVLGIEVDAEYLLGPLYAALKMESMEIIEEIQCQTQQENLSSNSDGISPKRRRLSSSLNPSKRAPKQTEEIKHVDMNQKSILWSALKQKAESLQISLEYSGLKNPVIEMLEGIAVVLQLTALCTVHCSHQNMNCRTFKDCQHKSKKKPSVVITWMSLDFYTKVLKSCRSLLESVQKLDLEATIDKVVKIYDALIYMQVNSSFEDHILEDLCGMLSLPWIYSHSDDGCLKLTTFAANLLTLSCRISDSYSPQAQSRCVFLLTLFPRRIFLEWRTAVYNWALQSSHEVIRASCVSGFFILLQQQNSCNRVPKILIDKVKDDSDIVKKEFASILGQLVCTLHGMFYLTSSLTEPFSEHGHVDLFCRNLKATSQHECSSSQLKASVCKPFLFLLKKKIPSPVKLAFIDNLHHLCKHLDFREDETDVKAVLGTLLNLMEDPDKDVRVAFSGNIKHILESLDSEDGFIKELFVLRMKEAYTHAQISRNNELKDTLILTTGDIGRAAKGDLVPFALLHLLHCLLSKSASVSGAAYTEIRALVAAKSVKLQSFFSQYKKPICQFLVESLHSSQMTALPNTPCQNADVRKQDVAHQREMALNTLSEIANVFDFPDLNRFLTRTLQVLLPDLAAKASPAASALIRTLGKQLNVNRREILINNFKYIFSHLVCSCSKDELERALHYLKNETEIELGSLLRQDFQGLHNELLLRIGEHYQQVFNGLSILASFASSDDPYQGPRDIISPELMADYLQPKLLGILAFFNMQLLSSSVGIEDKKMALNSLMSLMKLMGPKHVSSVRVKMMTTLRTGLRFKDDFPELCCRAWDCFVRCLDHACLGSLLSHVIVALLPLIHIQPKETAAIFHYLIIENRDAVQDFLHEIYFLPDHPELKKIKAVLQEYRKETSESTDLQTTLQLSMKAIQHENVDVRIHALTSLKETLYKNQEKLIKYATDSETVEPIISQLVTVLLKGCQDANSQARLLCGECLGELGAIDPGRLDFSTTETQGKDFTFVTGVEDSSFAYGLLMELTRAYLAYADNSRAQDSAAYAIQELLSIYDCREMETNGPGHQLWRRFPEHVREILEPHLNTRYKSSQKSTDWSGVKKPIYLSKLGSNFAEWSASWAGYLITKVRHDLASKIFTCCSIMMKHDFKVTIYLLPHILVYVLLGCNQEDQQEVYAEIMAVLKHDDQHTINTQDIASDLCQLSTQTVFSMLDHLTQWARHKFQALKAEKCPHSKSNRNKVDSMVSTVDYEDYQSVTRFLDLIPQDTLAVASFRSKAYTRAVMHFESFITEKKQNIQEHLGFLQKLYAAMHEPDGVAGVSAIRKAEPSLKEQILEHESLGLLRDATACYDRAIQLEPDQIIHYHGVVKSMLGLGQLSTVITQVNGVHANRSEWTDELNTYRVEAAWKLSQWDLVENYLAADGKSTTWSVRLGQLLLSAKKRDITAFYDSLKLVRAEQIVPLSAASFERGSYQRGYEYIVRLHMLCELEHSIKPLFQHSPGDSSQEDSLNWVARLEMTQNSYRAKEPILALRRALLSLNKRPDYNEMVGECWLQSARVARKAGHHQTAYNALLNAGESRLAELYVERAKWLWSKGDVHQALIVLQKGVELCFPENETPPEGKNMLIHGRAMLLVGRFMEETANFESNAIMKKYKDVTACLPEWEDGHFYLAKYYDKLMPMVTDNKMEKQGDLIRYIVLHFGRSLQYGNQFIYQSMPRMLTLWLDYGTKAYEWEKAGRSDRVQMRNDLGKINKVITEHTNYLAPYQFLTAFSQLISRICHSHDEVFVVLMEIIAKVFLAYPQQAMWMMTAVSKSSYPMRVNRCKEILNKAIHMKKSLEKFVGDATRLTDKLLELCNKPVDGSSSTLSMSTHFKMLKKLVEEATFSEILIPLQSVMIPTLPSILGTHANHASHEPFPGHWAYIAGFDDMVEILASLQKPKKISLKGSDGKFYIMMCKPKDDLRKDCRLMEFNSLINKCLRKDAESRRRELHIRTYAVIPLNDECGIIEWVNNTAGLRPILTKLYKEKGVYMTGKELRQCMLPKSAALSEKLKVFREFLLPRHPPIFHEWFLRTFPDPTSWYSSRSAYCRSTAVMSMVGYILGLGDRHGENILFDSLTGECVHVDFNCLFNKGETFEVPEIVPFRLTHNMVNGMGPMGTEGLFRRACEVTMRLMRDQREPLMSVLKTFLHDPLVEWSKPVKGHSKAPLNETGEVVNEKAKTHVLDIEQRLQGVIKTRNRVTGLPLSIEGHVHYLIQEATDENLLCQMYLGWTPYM
UCHL1: Ubiquitin carboxyl-terminal hydrolase isozyme L1 (UCHL1, Homo sapiens, UniProt P09936)
UniProt P09936, sequence (whole entry, looked up): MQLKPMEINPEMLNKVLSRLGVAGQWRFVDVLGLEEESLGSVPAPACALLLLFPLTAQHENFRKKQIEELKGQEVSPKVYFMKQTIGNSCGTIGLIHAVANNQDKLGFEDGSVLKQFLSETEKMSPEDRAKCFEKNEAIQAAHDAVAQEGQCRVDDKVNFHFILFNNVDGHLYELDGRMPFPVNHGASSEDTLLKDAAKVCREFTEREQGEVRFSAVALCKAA

With CCN1CCN(Cc2ccc(NC(=O)c3ccc(C)c(/C=C/c4cnc5[nH]ccc5c4OC)c3)cc2C(F)(F)F)CC1 the inhibition was -16.3% (ATR; A-375; 0.5 µM).
With COc1ccc(C=C(C#N)C(=O)Nc2ccccc2OC)cc1O the labelling was 10.4% (UCHL1; covalent, intact protein LC-MS; 12.5 µM).
The inhibition of CC[C@@H]1[C@H](F)C(=O)N[C@@H]1COc1nccc2cc(C(N)=O)c(OC)cc12 is reported as 14.9% (ATR; ATP-site probe binding, ActivX profiling; THP-1 cell lysate; 0.01 mM).
For COc1cc(Cl)c(C(=O)N[C@@H](CN[C@H]2CC[C@@H](N)CC2)Cc2ccc(C#N)cc2)cc1-c1ccc(CN[C@H](C)c2ccc(C)cc2)o1, the remaining activity was 104% (ATR; enzyme activity, KinaseProfiler panel; 1 µM).
The inhibition of O=C(c1ccc([N+](=O)[O-])o1)N1CCc2ccccc2C1 is reported as -12.5% (Trypanosoma cruzi; reporter translation, Renilla luciferase mRNA translation; cell-free extract; 40 µM; relative to: DMSO).
COc1cc(-c2cncc3c2CN(C)Cc2cc(N4CCNCC4)ccc2-3)cc(OC)c1OC gave a remaining activity of 93% (ATR; enzyme activity; 1 µM, with: 10 µM ATP; relative to: DMSO).
For COc1ccc2oc(-c3ccc4nc(N)oc4c3)c/c(=N\c3ccccc3NC(=O)CCN)c2c1, the remaining activity was 101% (ATR; kinase activity; 1 µM; relative to: untreated control).
With Cc1cnc(NC2CCOCC2)nc1-n1cnc(C(=O)NC(CN)c2cc(F)cc(Cl)c2)c1 (stereo not drawn) the remaining activity was 107% (ATR; radiometric; 1 µM).
Cc1ccc(C(=O)NCc2ccsc2)cc1C#Cc1cn(C(C)C)c2ncnc(N)c12 has a remaining activity of 101% (ATR; kinase activity; 1 µM, with: ATP at Km).
The remaining activity of Cc1cc(NC(=O)c2cccc3cc(-c4cccc5[nH]nc(N)c45)ccc23)ccc1F is reported as 100% (ATR; enzyme activity, kinase profiling panel; 0.1 µM).
For Cc1ccc(NC(=O)c2ccc(C)c(C(F)(F)F)c2)cc1C#Cc1nn(C2CCC(O)CC2)c2ncnc(N)c12 (stereo not drawn), the remaining activity was 94% (ATR; enzyme activity; 10 µM, with: ATP 10 µM).
Cc1cc(C)c(NC(=O)C(C#N)=Cc2ccc(C(C)(C)C)cc2)c(C)c1 has a labelling of 9.86% (UCHL1; covalent, intact protein LC-MS; 12.5 µM).

Repeated from above:
The inhibition of CC[C@@H]1[C@H](F)C(=O)N[C@@H]1COc1nccc2cc(C(N)=O)c(OC)cc12 is reported as 14.9% (ATR; ATP-site probe binding, ActivX profiling; THP-1 cell lysate; 0.01 mM).
